Results gathered from unrelated publications.
Each line is one published result; not all experiments were run side by side. Several values in a cell are separate wells, animals, samples, runs or records. Numbers after ± are the reported error.
GLP1R: Glucagon-like peptide 1 receptor (GLP1R, Homo sapiens, UniProt P43220)
GPR17 long isoform: Uracil nucleotide/cysteinyl leukotriene receptor, long isoform (GPR17, Homo sapiens, UniProt Q13304)
AHR: Aryl hydrocarbon receptor (AHR, Homo sapiens, UniProt P35869)
KCNT1: Potassium channel subfamily T member 1 (KCNT1, Homo sapiens, UniProt Q5JUK3)
E3 ubiquitin-protein ligase NEDD4: E3 ubiquitin-protein ligase NEDD4 (Homo sapiens, UniProt P46934)

Amino acid sequences for entries named in this document (tags omitted). Residues count along the entry.
UniProt P43220, whole entry, looked up: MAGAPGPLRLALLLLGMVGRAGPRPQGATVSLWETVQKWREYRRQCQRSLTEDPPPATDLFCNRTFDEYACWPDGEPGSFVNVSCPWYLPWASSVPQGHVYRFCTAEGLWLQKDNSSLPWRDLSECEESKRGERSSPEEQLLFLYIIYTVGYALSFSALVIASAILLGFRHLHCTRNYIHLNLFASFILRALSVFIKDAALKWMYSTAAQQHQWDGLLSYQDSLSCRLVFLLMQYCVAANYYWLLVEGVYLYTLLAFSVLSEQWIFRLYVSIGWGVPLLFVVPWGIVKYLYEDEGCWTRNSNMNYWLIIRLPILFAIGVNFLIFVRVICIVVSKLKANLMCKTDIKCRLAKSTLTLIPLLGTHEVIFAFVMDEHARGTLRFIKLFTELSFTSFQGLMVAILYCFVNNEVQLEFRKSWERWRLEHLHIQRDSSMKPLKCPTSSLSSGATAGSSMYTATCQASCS
UniProt P43220, 24-463 limits assumed: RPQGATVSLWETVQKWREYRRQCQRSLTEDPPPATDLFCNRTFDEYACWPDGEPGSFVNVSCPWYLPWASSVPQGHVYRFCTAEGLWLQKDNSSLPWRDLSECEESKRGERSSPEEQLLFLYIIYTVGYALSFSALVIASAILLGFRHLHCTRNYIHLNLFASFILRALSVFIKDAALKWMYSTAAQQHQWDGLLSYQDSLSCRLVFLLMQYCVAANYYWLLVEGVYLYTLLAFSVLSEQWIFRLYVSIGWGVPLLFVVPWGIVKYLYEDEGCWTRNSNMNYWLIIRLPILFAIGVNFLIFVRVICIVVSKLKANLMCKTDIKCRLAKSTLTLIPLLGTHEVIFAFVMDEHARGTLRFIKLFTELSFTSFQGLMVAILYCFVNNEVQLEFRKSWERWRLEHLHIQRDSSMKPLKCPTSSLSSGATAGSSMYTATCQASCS
UniProt Q13304, whole entry: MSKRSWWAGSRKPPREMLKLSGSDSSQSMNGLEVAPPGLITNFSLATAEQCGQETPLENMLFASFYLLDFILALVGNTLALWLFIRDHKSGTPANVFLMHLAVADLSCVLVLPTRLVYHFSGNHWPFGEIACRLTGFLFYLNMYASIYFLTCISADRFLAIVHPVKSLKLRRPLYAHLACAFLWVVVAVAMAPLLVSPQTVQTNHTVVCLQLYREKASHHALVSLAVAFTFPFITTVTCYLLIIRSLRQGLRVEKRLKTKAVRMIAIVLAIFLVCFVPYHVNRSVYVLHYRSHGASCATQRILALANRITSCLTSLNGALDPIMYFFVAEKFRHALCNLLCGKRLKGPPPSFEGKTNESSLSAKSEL
UniProt P35869, whole entry, looked up: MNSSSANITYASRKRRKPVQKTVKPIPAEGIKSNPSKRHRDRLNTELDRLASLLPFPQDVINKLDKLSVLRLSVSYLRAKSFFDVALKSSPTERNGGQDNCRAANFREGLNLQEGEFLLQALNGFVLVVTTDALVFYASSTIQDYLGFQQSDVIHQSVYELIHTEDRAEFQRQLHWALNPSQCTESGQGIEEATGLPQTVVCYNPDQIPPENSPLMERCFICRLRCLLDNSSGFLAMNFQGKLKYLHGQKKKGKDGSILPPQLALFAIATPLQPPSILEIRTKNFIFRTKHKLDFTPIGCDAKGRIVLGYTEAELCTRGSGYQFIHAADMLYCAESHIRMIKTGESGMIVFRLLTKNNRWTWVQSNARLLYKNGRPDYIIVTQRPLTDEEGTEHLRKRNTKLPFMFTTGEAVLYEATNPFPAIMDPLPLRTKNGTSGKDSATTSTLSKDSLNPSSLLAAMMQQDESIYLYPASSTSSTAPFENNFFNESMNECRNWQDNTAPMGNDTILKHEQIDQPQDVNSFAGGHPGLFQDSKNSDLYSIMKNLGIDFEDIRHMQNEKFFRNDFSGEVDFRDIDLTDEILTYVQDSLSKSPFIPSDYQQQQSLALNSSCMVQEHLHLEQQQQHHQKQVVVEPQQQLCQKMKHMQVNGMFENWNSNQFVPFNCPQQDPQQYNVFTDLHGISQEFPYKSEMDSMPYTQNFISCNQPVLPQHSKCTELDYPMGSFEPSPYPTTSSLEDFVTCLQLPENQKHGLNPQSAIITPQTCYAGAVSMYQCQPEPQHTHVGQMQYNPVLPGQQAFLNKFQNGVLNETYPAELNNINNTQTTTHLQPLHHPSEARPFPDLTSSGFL
UniProt Q5JUK3, whole entry: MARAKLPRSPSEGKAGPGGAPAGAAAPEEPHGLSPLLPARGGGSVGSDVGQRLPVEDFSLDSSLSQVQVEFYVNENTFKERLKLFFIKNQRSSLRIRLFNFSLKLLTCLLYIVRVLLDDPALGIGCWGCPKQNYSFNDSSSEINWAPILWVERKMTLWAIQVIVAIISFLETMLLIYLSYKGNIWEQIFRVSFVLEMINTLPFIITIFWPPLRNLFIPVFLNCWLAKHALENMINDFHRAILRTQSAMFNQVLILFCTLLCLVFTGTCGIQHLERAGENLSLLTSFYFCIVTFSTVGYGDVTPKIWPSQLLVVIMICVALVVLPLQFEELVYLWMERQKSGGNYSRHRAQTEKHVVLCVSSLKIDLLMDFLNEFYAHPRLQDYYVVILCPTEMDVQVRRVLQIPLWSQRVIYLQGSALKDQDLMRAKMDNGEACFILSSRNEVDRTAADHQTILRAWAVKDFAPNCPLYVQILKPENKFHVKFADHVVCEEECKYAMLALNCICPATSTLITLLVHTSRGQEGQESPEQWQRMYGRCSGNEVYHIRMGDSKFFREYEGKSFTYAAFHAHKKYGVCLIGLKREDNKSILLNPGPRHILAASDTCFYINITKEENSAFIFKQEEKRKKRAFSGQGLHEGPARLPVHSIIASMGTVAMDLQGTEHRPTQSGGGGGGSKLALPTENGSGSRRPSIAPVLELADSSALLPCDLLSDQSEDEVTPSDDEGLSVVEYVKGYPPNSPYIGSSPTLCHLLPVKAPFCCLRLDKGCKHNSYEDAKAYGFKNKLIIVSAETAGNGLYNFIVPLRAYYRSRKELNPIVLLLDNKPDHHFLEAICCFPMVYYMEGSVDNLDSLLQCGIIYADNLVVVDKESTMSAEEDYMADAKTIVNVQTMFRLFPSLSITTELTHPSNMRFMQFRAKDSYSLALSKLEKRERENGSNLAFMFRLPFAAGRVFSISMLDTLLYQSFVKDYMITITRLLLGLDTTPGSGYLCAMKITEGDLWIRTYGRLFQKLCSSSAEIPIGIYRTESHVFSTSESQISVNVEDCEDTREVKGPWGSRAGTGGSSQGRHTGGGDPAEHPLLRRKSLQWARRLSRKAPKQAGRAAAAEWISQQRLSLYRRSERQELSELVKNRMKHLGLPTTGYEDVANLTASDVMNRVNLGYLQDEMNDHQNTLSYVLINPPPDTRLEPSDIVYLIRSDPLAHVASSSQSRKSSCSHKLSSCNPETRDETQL
UniProt P46934, whole entry, looked up: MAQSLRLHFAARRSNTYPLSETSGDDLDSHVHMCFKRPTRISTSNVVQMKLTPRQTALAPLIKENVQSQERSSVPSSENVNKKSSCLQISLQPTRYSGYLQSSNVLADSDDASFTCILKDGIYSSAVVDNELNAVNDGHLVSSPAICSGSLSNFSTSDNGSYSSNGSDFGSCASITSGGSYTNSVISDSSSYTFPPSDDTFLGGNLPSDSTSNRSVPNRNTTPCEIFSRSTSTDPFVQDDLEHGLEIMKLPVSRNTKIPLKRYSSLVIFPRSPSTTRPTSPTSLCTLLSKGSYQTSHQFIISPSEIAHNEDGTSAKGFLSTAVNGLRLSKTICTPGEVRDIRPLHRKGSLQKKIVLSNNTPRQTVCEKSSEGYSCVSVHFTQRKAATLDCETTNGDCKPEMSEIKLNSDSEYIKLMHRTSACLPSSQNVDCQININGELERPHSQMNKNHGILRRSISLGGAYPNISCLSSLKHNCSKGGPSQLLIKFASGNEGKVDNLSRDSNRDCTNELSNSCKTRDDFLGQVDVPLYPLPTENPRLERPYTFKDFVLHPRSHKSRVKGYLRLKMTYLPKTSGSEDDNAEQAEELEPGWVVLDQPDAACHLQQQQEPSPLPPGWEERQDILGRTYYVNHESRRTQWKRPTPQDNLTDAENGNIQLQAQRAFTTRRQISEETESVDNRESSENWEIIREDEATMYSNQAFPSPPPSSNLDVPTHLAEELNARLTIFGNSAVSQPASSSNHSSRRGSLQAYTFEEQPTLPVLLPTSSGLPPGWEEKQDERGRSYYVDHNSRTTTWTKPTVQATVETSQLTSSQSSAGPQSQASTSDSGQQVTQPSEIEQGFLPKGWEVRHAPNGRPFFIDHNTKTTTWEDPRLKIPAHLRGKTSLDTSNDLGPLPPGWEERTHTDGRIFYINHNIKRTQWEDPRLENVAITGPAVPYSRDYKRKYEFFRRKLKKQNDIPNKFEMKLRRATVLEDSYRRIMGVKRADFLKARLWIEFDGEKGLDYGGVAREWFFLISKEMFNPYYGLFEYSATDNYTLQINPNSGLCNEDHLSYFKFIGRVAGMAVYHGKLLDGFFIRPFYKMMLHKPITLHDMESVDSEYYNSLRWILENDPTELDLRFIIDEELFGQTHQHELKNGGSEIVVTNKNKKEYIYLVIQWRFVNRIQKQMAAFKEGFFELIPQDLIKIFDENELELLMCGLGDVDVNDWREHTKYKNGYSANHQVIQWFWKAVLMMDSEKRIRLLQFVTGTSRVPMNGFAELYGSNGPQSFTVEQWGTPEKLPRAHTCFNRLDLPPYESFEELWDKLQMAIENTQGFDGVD
UniProt O60502, whole entry: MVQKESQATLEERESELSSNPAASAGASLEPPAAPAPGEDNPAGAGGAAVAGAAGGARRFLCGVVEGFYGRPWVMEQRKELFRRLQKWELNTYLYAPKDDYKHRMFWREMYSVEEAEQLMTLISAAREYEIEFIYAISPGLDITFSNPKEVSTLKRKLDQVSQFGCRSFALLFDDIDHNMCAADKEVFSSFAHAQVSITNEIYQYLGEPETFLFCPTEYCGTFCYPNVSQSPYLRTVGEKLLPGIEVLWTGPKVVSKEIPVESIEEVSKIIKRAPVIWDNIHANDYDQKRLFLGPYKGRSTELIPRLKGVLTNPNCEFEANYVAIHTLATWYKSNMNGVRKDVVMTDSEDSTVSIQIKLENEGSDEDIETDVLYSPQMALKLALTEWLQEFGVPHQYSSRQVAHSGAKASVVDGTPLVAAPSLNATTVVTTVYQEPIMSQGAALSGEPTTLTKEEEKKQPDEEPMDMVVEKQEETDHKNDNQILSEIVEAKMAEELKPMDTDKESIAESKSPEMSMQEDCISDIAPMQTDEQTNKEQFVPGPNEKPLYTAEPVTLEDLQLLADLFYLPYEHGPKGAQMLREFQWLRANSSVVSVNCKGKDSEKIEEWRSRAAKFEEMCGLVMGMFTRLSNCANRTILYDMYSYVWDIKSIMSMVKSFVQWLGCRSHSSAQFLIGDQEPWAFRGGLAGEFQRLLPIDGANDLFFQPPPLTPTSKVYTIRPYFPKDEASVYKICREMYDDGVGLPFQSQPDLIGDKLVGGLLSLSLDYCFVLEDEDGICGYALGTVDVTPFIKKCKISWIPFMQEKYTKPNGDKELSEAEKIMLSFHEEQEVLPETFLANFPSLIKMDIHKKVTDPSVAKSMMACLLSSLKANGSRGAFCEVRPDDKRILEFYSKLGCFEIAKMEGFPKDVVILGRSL
UniProt P30518, whole entry: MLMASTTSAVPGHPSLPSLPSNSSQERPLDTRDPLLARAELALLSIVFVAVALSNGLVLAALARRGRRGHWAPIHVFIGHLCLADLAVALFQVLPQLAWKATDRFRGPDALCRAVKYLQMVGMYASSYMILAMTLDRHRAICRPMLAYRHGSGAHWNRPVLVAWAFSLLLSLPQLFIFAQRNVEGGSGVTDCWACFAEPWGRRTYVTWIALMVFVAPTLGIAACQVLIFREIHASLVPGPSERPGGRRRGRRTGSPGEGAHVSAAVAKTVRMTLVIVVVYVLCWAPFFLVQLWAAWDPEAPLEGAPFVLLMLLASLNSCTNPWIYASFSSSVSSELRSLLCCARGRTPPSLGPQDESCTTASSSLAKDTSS
UniProt P53779, 1-422 isoform 2: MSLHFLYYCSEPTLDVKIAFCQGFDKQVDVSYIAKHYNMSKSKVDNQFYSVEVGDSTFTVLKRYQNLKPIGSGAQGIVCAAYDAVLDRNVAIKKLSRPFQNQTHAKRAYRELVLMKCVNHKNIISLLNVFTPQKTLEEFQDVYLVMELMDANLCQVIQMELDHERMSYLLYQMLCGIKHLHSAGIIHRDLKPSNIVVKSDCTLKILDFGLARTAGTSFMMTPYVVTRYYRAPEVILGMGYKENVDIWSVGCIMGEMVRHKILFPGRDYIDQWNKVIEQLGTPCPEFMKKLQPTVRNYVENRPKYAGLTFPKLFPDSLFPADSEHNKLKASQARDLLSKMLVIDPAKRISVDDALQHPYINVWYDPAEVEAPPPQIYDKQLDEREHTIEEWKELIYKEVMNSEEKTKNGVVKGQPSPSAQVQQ

Structure (SMILES)	target or system	assay	test system	conditions	scale	measurement	value
COc1ccccc1-c1cc(C(F)(F)F)nc(S(=O)(=O)CCCC(=O)O)n1	GLP1R	cAMP accumulation, agonist	HEK293T overexpressing target	no peptide ligand		Emax	26 ± 0.1%
Nc1ncc(-c2ccc3ncnc(N4CCc5cc(F)c(Cl)cc54)c3c2)cn1			CD1 mouse, plasma	intravenous, 5 mg/kg		dose-normalised AUC(0-t)	152 mg·h/mL
Cc1[nH]c2cc(Cl)cc(Cl)c2c1CCn1cc(COCCOCCO)nn1	GLP1R	cAMP accumulation, positive allosteric modulator, HTRF		0.6 µM, crude reaction product, with: GLP-1(9-36) at EC20	relative to: BETP	Emax	105%
CCS(=O)(=O)c1nc(-c2ccc(F)cc2)cc(C(F)F)n1	Secretin receptor (SCTR, Homo sapiens, UniProt P47872)	cAMP accumulation, positive allosteric modulator	CHO-K1 overexpressing target	with: secretin-family peptide mix at EC10-EC20		Emax	no effect
COC(=O)[C@@H]1C(c2nc3ccccc3o2)=Cc2cc3c(cc2[C@H]1c1cc(OC)c(OC)c(OC)c1)OCO3	Leishmania		mouse splenocytes		relative to: CC50 over amastigote EC50	selectivity index	> 22.2
Cc1ncsc1-c1ccc([C@H](C)NC(=O)[C@@H]2C[C@@H](O)CN2C(=O)[C@@H](NC(=O)CCCCCCC(=O)N2CCN(C[C@]3(C)CCC(c4ccc(Cl)cc4)=C(CN4CCN(c5ccc(C(=O)NS(=O)(=O)c6ccc(N[C@H](CCN7CCOCC7)CSc7ccccc7)c(S(=O)(=O)C(F)(F)F)c6)cc5)CC4)C3)CC2)C(C)(C)C)cc1		measured: SASP and necroptosis markers	STAM mice NASH-HCC model, liver	dose not given, day 150, treated days 90-150		mRNA level	decreased
O=C(Nc1ccc(Cl)cc1)C(NS(=O)(=O)c1ccccc1)c1ccccc1 (stereo not drawn)	GPR17 long isoform	calcium mobilization, antagonist	1321N1 stably expressing GPR17	fitted at highest concentration	higher = stronger inhibition	Emax	104 ± 4.46%
Cc1[nH]c2cc(Cl)cc(Cl)c2c1CCn1cc(C2(O)COC2)nn1	GLP1R	cAMP accumulation, positive allosteric modulator, HTRF		0.6 µM, crude reaction product, with: GLP-1(9-36) at EC20	relative to: BETP	Emax	94.8%
O=C(Nc1ccc(Cl)cc1)C(NS(=O)(=O)c1cccc(C(F)(F)F)c1)c1ccccc1 (stereo not drawn)	GPR17 long isoform	calcium mobilization, antagonist	1321N1 stably expressing GPR17	fitted at highest concentration	higher = stronger inhibition	Emax	87.5 ± 12.7%
CC(=O)Nc1ncc(CN2CC[C@H](Oc3cccc(F)n3)C[C@@H]2C)s1 [isotope labelled]	Protein O-GlcNAcase (OGA, Homo sapiens, UniProt O60502)	radioligand binding	human Alzheimer's disease, postmortem cortex homogenate	dose not given	relative to: non-demented control brain	binding potential increase	~40%
O=C(c1cccc(N2CCOCC2)n1)c1c[nH]c2ccccc12	AHR	reporter gene, agonist			relative to: ITE	Emax	59 ± 1%
Cc1[nH]c2cc(Cl)cc(Cl)c2c1CCn1cc(CCCC#N)nn1	GLP1R	cAMP accumulation, positive allosteric modulator, HTRF		0.6 µM, purified compound, with: GLP-1(9-36) at EC20	relative to: BETP	Emax	99 ± 3%
O=C(Nc1ccc(Cl)cc1)C(NS(=O)(=O)c1cccs1)c1cccc(F)c1 (stereo not drawn)	GPR17 long isoform	calcium mobilization, antagonist	1321N1 stably expressing GPR17	fitted at highest concentration	higher = stronger inhibition	Emax	111 ± 1.84%
O=S(=O)(c1cccc(C(F)(F)F)c1)N1CCC(Cn2cnc3cc(C(F)(F)F)ccc32)CC1	KCNT1	thallium flux, activator	HEK293 expressing KCNT1	30 µM	relative to: loxapine maximal response	Emax	< 10%
CC(C)(Cn1cc(-c2ccc(N)nc2)nn1)c1c[nH]c2ccccc12	GLP1R	cAMP accumulation, positive allosteric modulator, HTRF		0.6 µM, purified compound, with: GLP-1(9-36) at EC20	relative to: BETP	Emax	111 ± 6%
CCOC(=O)c1cccc(C(NS(=O)(=O)c2cccs2)C(=O)Nc2ccc(Cl)cc2)c1 (stereo not drawn)	GPR17 long isoform	calcium mobilization, antagonist	1321N1 stably expressing GPR17	fitted at highest concentration	higher = stronger inhibition	Emax	99.1 ± 7.63%
Cc1cccc2c1ncn2CC1CCN(S(=O)(=O)c2cccc(C(F)(F)F)c2)CC1	KCNT1	thallium flux, activator	HEK293 expressing KCNT1	30 µM	relative to: loxapine maximal response	Emax	90%
CCOC(=O)/C=C/CNCCCCN1c2ccccc2CCc2ccc(Cl)cc21	E3 ubiquitin-protein ligase NEDD4	inhibitor, Ub-TR-FRET		0.1372 µM, 1 h preincubation, HECT domain, with: ATP 2 mM	higher = more ubiquitination	ubiquitination TR-FRET signal AUC	79800 a.u. and 83200 a.u. and 84400 a.u. and 130000 a.u. and 84000 a.u. and 78900 a.u.
O=C(c1cccc(-c2ccccc2)n1)c1c[nH]c2ccccc12	AHR	reporter gene, agonist			relative to: ITE	Emax	65 ± 3%
CCOC(=O)/C=C/CNCCCCCN1c2ccccc2CCc2ccc(Cl)cc21	E3 ubiquitin-protein ligase NEDD4	inhibitor, Ub-TR-FRET		0.005081 µM, 1 h preincubation, HECT domain, with: ATP 2 mM	higher = more ubiquitination	ubiquitination TR-FRET signal AUC	97900 a.u. and 100000 a.u. and 70900 a.u. and 71200 a.u. and 98400 a.u. and 68800 a.u.

Structure (SMILES)	target or system	assay	test system	conditions	scale	measurement	value
Cc1ccc2c(c1)ncn2CC1CCN(S(=O)(=O)c2cccc(C(F)(F)F)c2)CC1	KCNT1	thallium flux, activator	HEK293 expressing KCNT1	30 µM	relative to: loxapine maximal response	Emax	52%
COC(=O)c1cccc(C(=O)c2cn(C)c3ccccc23)n1	AHR	reporter gene, agonist			relative to: ITE	Emax	58 ± 3%
O=C(O)CCNC(=O)c1ccc(NCc2cn(CCc3ccc4ccccc4c3)nn2)cc1	GLP1R	cAMP accumulation, positive allosteric modulator, HTRF		0.6 µM, with: GLP-1(9-36) at EC20	relative to: BETP	Emax	77%
COc1ccc2c(c1)ncn2CC1CCN(S(=O)(=O)c2cccc(C(F)(F)F)c2)CC1	KCNT1	thallium flux, activator	HEK293 expressing KCNT1	30 µM	relative to: loxapine maximal response	Emax	59%
O=C(O)c1cccc(C(=O)c2c[nH]c3ccccc23)n1	AHR	reporter gene, agonist			relative to: ITE	Emax	50 ± 2%
CCOC(=O)C1=C(C)NC2=C(C(=O)CC(C)(C)C2)C1c1ccc(OCC(=O)NN=Cc2cccc(C=O)c2)cc1OCC(=O)NN=Cc1cccc(C=O)c1 (stereo not drawn)	Klebsiella pneumoniae		EMCS	concentration not given, 24 h		inhibition zone diameter	3 ± 0.3 mm
O=C(Nc1ccc(Cl)cc1)C(NS(=O)(=O)c1cccs1)c1ccc(Cl)cc1 (stereo not drawn)	GPR17 long isoform	calcium mobilization, antagonist	1321N1 stably expressing GPR17	fitted at highest concentration	higher = stronger inhibition	Emax	83.4 ± 3.74%
CC(=O)NCc1cn(CCc2c(C)[nH]c3cc(Cl)cc(Cl)c23)nn1	GLP1R	cAMP accumulation, positive allosteric modulator, HTRF		0.6 µM, purified compound, with: GLP-1(9-36) at EC20	relative to: BETP	Emax	114 ± 3%
O=C(OC1CCCCC1)c1cccc(C(=O)c2c[nH]c3ccccc23)n1	AHR	reporter gene, agonist			relative to: ITE	Emax	56 ± 1%
COC(=O)[C@@H]1C(c2nc3cc(Cl)ccc3o2)=Cc2cc3c(cc2[C@H]1c1cc(OC)c(OC)c(OC)c1)OCO3	Leishmania		mouse splenocytes		relative to: CC50 over amastigote EC50	selectivity index	> 8.4
O=C(Nc1cccc(-c2cc[nH]n2)c1)C(NS(=O)(=O)c1cccs1)c1ccccc1 (stereo not drawn)	GPR17 long isoform	calcium mobilization, antagonist	1321N1 stably expressing GPR17	fitted at highest concentration	higher = stronger inhibition	Emax	100 ± 4.85%
CC(C)(Cn1cc(-c2ccc(S(C)(=O)=O)cc2)nn1)c1c[nH]c2ccccc12	GLP1R	cAMP accumulation, positive allosteric modulator, HTRF		0.6 µM, crude reaction product, with: GLP-1(9-36) at EC20	relative to: BETP	Emax	88.7%
COc1ccccc1-c1cc(C(F)(F)F)nc(S(C)(=O)=O)n1	Vasopressin V2 receptor (AVPR2, Homo sapiens, UniProt P30518)	cAMP accumulation, positive allosteric modulator	CHO-K1 overexpressing target	with: vasopressin at EC20		Emax	16 ± 2.9%
COC(=O)[C@@]1(C)C=C(C(=O)Nc2cccc(C(=O)NC34CC(Nc5nccc(-c6cccnc6)n5)(C3)C4)c2)C(=O)CC1	Mitogen-activated protein kinase 10 (MAPK10, Homo sapiens, UniProt P53779)	enzyme activity, inhibitor		4.938 µM		remaining activity	0.0864 fraction of control
COc1cccc2c1ncn2CC1CCN(S(=O)(=O)c2cccc(C(F)(F)F)c2)CC1	KCNT1	thallium flux, activator	HEK293 expressing KCNT1	30 µM	relative to: loxapine maximal response	Emax	62%
O=C(Nc1ccc(Br)c(F)c1)C(NS(=O)(=O)c1cccs1)c1ccccc1 (stereo not drawn)	GPR17 long isoform	calcium mobilization, antagonist	1321N1 stably expressing GPR17	fitted at highest concentration	higher = stronger inhibition	Emax	75.8 ± 6.38%
CCCC(O)c1cn(CCc2c(C)[nH]c3cc(Cl)cc(Cl)c23)nn1 (stereo not drawn)	GLP1R	cAMP accumulation, positive allosteric modulator, HTRF		0.6 µM, crude reaction product, with: GLP-1(9-36) at EC20	relative to: BETP	Emax	92.5%
Cc1ccccc1C(NS(=O)(=O)c1cccs1)C(=O)Nc1ccc(Cl)cc1 (stereo not drawn)	GPR17 long isoform	calcium mobilization, antagonist	1321N1 stably expressing GPR17	fitted at highest concentration	higher = stronger inhibition	Emax	123 ± 3.12%
O=S(=O)(c1cccc(C(F)(F)F)c1)N1CCC(Cn2cnc3ccc(C(F)(F)F)cc32)CC1	KCNT1	thallium flux, activator	HEK293 expressing KCNT1	30 µM	relative to: loxapine maximal response	Emax	82%

For quick reference, copied from above:
Structure (SMILES)	target or system	assay	test system	conditions	scale	measurement	value
COC(=O)[C@@H]1C(c2nc3cc(Cl)ccc3o2)=Cc2cc3c(cc2[C@H]1c1cc(OC)c(OC)c(OC)c1)OCO3	Leishmania		mouse splenocytes		relative to: CC50 over amastigote EC50	selectivity index	> 8.4
CC(C)(Cn1cc(-c2ccc(S(C)(=O)=O)cc2)nn1)c1c[nH]c2ccccc12	GLP1R	cAMP accumulation, positive allosteric modulator, HTRF		0.6 µM, crude reaction product, with: GLP-1(9-36) at EC20	relative to: BETP	Emax	88.7%
O=C(O)c1cccc(C(=O)c2c[nH]c3ccccc23)n1	AHR	reporter gene, agonist			relative to: ITE	Emax	50 ± 2%
O=C(O)CCNC(=O)c1ccc(NCc2cn(CCc3ccc4ccccc4c3)nn2)cc1	GLP1R	cAMP accumulation, positive allosteric modulator, HTRF		0.6 µM, with: GLP-1(9-36) at EC20	relative to: BETP	Emax	77%
Cc1ccccc1C(NS(=O)(=O)c1cccs1)C(=O)Nc1ccc(Cl)cc1 (stereo not drawn)	GPR17 long isoform	calcium mobilization, antagonist	1321N1 stably expressing GPR17	fitted at highest concentration	higher = stronger inhibition	Emax	123 ± 3.12%
COc1ccc2c(c1)ncn2CC1CCN(S(=O)(=O)c2cccc(C(F)(F)F)c2)CC1	KCNT1	thallium flux, activator	HEK293 expressing KCNT1	30 µM	relative to: loxapine maximal response	Emax	59%
